Measurements pooled from the literature.
Compare with care: the assays were run in different laboratories. Several values in a cell are separate wells, animals, samples, runs or records. ± gives the spread as reported.

CC1OC(Oc2c(-c3ccc(O)cc3)oc3cc(O)cc(O)c3c2=O)C(OC(=O)C=Cc2ccc(O)cc2)C(O)C1OC(=O)C=Cc1ccc(O)cc1 (centres unmarked)  CD8 T cells (flow cytometry; mouse C57BL/6, orthotopic Hepa1-6, tumour; dose not given; reference: vehicle): 2 fold
C=C(c1cc(F)c(C(=O)O)c(F)c1)c1cc2c(cc1C)C(C)(C)CCC2(C)C  log2 fold change (RNA sequencing, measured: Cga mRNA; rat, brain; dose not given, 24 h, single dose; reference: vehicle): 2.91
CCCC[C@H](NC(=O)[C@@H](NC(=O)[C@H](CC(=O)O)NC(=O)[C@H](CCC(N)=O)NC(=O)[C@H](CC(C)C)NC(=O)[C@H](CC(C)C)NC(=O)[C@H](CCCN)NC(=O)[C@H](CCCNC(=N)N)NC(=O)[C@H](C)NC(=O)[C@H](CO)NC(=O)[C@H](CC(C)C)NC(=O)[C@H](CCC(N)=O)NC(=O)[C@H](CC)NC(=O)[C@H](CC(C)C)NC(=O)[C@@H](NC(=O)[C@H](CCCN)NC(=O)[C@H](CCCNC(=N)N)NC(=O)[C@H](Cc1ccc(O)cc1)NC(=O)[C@H](CO)NC(=O)[C@H](CCC(N)=O)NC(=O)[C@@H](NC(=O)[C@H](Cc1ccccc1)NC(=O)[C@@H](NC(=O)[C@H](C)NC(=O)[C@H](CC(=O)O)NC(=O)[C@@H](C)NC(=O)[C@H](Cc1ccc(O)cc1)NC)[C@@H](C)CC)[C@@H](C)O)C(C)C)[C@@H](C)CC)C(=O)N[C@@H](CC(=O)O)C(=O)N[C@@H](CCCNC(=N)N)C(=O)NCCCCC(N)=O  relative potency (GH release; rat, male, serum; subcutaneous, 3 µg/kg, 15 min; reference: reference GHRH agonist JI-38): 1.5 and 1.47
O=C1/C(=C/c2ccccc2)Oc2cc(O)c(-c3ccc(O)c(O)c3)c(O)c21  EC50 (ABTS scavenging, absorbance): 1060 µM
Cc1ccc(C(=O)Nc2ccc(CP(=O)(O)O)cc2CP(=O)(O)O)cc1NC(=O)c1cccc(NC(=O)Nc2cccc(C(=O)Nc3cc(C(=O)Nc4ccc(CP(=O)(O)O)cc4CP(=O)(O)O)ccc3C)c2)c1  concentration for PT increase (prothrombin time; normal human plasma; 1.5-fold increase): > 750 µM
CCCC[C@H](NC(=O)[C@@H](NC(=O)[C@H](CC(=O)O)NC(=O)[C@H](CCC(N)=O)NC(=O)[C@H](CC(C)C)NC(=O)[C@H](CC(C)C)NC(=O)[C@H](CCCN)NC(=O)[C@H](CCCNC(=N)N)NC(=O)[C@H](C)NC(=O)[C@H](CO)NC(=O)[C@H](CC(C)C)NC(=O)[C@H](CCC(N)=O)NC(=O)[C@H](CC)NC(=O)[C@H](CC(C)C)NC(=O)[C@@H](NC(=O)[C@H](CCCN)NC(=O)[C@H](CCCNC(=N)N)NC(=O)[C@H](Cc1ccc(O)cc1)NC(=O)[C@H](CO)NC(=O)[C@H](CC(N)=O)NC(=O)[C@@H](NC(=O)[C@H](Cc1ccccc1)NC(=O)[C@@H](NC(=O)[C@H](C)NC(=O)[C@H](CC(=O)O)NC(=O)[C@@H](C)NC(=O)[C@H](Cc1ccc(O)cc1)NC)[C@@H](C)CC)[C@@H](C)O)C(C)C)[C@@H](C)CC)C(=O)N[C@@H](CC(=O)O)C(=O)N[C@@H](CCCNC(=N)N)C(=O)NCC  relative potency (GH release; rat, male, serum; subcutaneous, 3 µg/kg, 15 min; reference: reference GHRH agonist JI-38): 1.13
CCNC(=O)c1noc(-c2cc(C(C)C)c(O)cc2O)c1NC(=O)CCN1CCOCC1  complete response (nude mice, MV4-11 xenograft; intraperitoneal, 200 mg/kg, every 2 days for 2 weeks): 22%
CC(=O)[O-].O.O.O.O.[Mn+2].[O-]c1ccc(Br)cc1C=NCCN1CCOCC1  inhibition (DPPH radical scavenging; 240 µM): 53.5%
O=C(/C=C/c1ccc(O)c(O)c1)OCCCC[P+](c1ccccc1)(c1ccccc1)c1ccccc1  H2O2 level (DCFDA fluorescence; energized rat liver mitochondria; concentration not given): decreased
COc1ccc2c(c1OC)C(C(Cl)(Cl)Cl)N1CCc3cc4c(cc3C1=C2)OCO4 (centres unmarked)  total cholesterol (rat, STZ-induced diabetic, serum; oral, 12 mg/kg, day 28): 85.1 ± 4.01 mg/dL
NCC(=O)N1CCC[C@H]1C(=O)NCC(=O)NCC(=O)O  activation energy (diketopiperazine formation, Arrhenius plot, ESI-MS; 1-propanol; 70, 80, 90 °C, 0.5% acetic acid): 18.6 ± 1.91 kcal/mol
CCCC[C@H](NC(=O)[C@@H](NC(=O)[C@H](CC(=O)O)NC(=O)[C@H](CCC(N)=O)NC(=O)[C@H](CC(C)C)NC(=O)[C@H](CC(C)C)NC(=O)[C@H](CCCN)NC(=O)[C@H](CCCNC(=N)N)NC(=O)[C@H](C)NC(=O)[C@H](CO)NC(=O)[C@H](CC(C)C)NC(=O)[C@H](CCC(N)=O)NC(=O)[C@H](CC)NC(=O)[C@H](CC(C)C)NC(=O)[C@@H](NC(=O)[C@H](CCCN)NC(=O)[C@H](CCCNC(=N)N)NC(=O)[C@H](Cc1ccc(O)cc1)NC(=O)[C@H](CO)NC(=O)[C@@H](NC(=O)[C@@H](NC(=O)[C@H](Cc1ccccc1)NC(=O)[C@@H](NC(=O)[C@H](C)NC(=O)[C@H](CC(=O)O)NC(=O)[C@@H](C)NC(=O)[C@H](Cc1ccc(O)cc1)NC)[C@@H](C)CC)[C@@H](C)O)[C@@H](C)O)C(C)C)[C@@H](C)CC)C(=O)N[C@@H](CC(=O)O)C(=O)N[C@@H](CCCNC(=N)N)C(=O)NC  relative potency (GH release; rat, male, serum; subcutaneous, 3 µg/kg, 30 min; reference: reference GHRH agonist JI-38): 3.25
N#Cc1cnc2cc(OCC3CCNCC3)c(F)cc2c1Nc1cc(F)c(OCc2cccc(Cl)n2)cc1Cl  MOB1 phosphorylation (C57BL/6J mice, partial hepatectomy, resected liver; dose not given, 70% partial hepatectomy, pretreatment): decreased
Cc1cc(O)c(C=O)c2c1C(=O)Oc1c(CO)c(O)c3c(c1O2)C(O)OC3=O (centres unmarked)  mating success (mating test; rat, male, streptozotocin-induced diabetes; 5 mg/kg): 58.3%
C[C@H](NC(=O)COC(=O)[C@H](C)NC(=O)CO)C(=O)O  depolymerization rate constant (water; pH 2, 50 °C): 0.009 h⁻¹
CCCCC1NC(=O)c2ccccc21 (racemic)  black tail occurrence (thrombosis; mouse, carrageenan-induced thrombosis; oral, 50 mg/kg daily for 2 days, 48 h after carrageenan): 50%
C[C@@H](O)[C@@H]1NC(=O)[C@H](CCCCN)NC(=O)[C@@H](Cc2ccc(NC(N)=O)cc2)NC(=O)[C@H](Cc2ccc(NC(=O)[C@@H]3CC(=O)NC(=O)N3)cc2)NC(=O)[C@H](NC(=O)[C@H](Cc2ccc(Cl)cc2)NC(=O)CN2CCN(CC(=O)O)CCN(CC(=O)O)CCN(CC(=O)O)CC2)CSSC[C@@H](C(=O)N[C@H](Cc2ccc(O)cc2)C(N)=O)NC1=O [gallium-68 labelled]  SUVmax (PET/CT; human neuroendocrine tumour patients, liver lesions; 60 min): 25 ± 22
CCCC[C@H](NC(=O)[C@@H](NC(=O)[C@H](CC(=O)O)NC(=O)[C@H](CCC(N)=O)NC(=O)[C@H](CC(C)C)NC(=O)[C@H](CC(C)C)NC(=O)[C@H](CCCN)NC(=O)[C@H](CCCNC(=N)N)NC(=O)[C@H](C)NC(=O)[C@H](CO)NC(=O)[C@H](CC(C)C)NC(=O)[C@H](CCC(N)=O)NC(=O)[C@H](CC)NC(=O)[C@H](CC(C)C)NC(=O)[C@@H](NC(=O)[C@H](CCCN)NC(=O)[C@H](CCCNC(=N)N)NC(=O)[C@H](Cc1ccc(O)cc1)NC(=O)[C@H](CO)NC(=O)[C@H](CCC(N)=O)NC(=O)[C@@H](NC(=O)[C@H](Cc1ccccc1)NC(=O)[C@@H](NC(=O)[C@H](C)NC(=O)[C@H](CC(=O)O)NC(=O)[C@H](C)NC(=O)CCc1ccc(O)cc1)[C@@H](C)CC)[C@@H](C)O)C(C)C)[C@@H](C)CC)C(=O)N[C@@H](CC(=O)O)C(=O)N[C@@H](CCCNC(=N)N)C(=O)NC  relative potency (GH release; rat, male, serum; subcutaneous, 3 µg/kg, 15 min; reference: reference GHRH agonist JI-38): 1.1
Cc1ccccc1-c1cc(N2CCN(C(=O)CCC(=O)O)CC2)ccc1N(C)C(=O)C(C)(C)c1cc(C(F)(F)F)cc(C(F)(F)F)c1  duration of antinociception (mechanical allodynia, antagonist, von Frey test; hNK1R-407 mice; intrathecal, 5 µL, 30 nM, added: capsaicin): 6 h
CSCC[C@H](NC(=O)[C@H](CO)NC(=O)[C@@H](N)CO)C(=O)N[C@@H](CCCCN)C(=O)N[C@@H](CC(C)C)C(=O)N[C@@H](CO)C(=O)N[C@@H](Cc1ccccc1)C(=O)N[C@@H](CCCNC(=N)N)C(=O)N[C@@H](C)C(=O)N[C@@H](CCCNC(=N)N)C(=O)N[C@@H](C)C(=O)N[C@@H](Cc1ccc(O)cc1)C(=O)NCC(=O)N[C@@H](Cc1ccccc1)C(=O)N[C@@H](CCCNC(=N)N)C(=O)NCC(=O)N1CCC[C@H]1C(=O)NCC(=O)N1CCC[C@H]1C(=O)N[C@@H](CCC(N)=O)C(=O)N[C@@H](CC(C)C)C(=O)O  ED50 (liver glycogen increase; wild-type mouse, normal chow, liver): ~13 ng/g body weight

For quick reference, copied from above:
CCNC(=O)c1noc(-c2cc(C(C)C)c(O)cc2O)c1NC(=O)CCN1CCOCC1  complete response (nude mice, MV4-11 xenograft; intraperitoneal, 200 mg/kg, every 2 days for 2 weeks): 22%
O=C1/C(=C/c2ccccc2)Oc2cc(O)c(-c3ccc(O)c(O)c3)c(O)c21  EC50 (ABTS scavenging, absorbance): 1060 µM
